Results of several laboratories.
Compare with care: the assays were run in different laboratories. ± gives the spread as reported.
Medium: plasma

For CCCOc1ccc(S(N)(=O)=O)cc1-c1nc2c(CCC)nn(C)c2c(=O)[nH]1, the AUC(0-t) was 4680 ± 2720 ng·h/mL (healthy male humans; oral, 200 mg of udenafil, together with: dapoxetine 60 mg).
With [2H]C([2H])([2H])NC(=O)c1ccc(N2C(=S)N(c3ccc(C#N)c(C(F)(F)F)c3)C(=O)C2(C)C)cc1F the AUC(0-t) was 712000 ± 201000 ng·h/mL (healthy male human; oral, 160 mg, fed, single dose).
The AUC(0-t) of [2H]C([2H])([2H])Oc1cc2c(cc1OC([2H])([2H])[2H])[C@H]1CC(=O)[C@H](CC(C)C)CN1CC2 is reported as 0.26 ng·h/mL (human CYP2D6 extensive metabolizers; oral, 25 mg, fasted, arithmetic mean).
For [2H]C([2H])(c1ccc(O)c(O)c1)[C@]([2H])(N)C(=O)O, the AUC(0-t) was 3450 ng·h/mL (human; oral, 150 mg single, geometric LS mean, together with: 37.5 mg carbidopa).
O=C(CCc1ccc(CNC(C(=O)OC2CCCC2)C2CCCCC2)cn1)NO (stereo not drawn) gave an AUC(0-t) of 138 ng·h/mL (human; oral, 40 mg once daily, day 1, geometric mean).
With CN[C@@H](CCOc1cccc2ccccc12)c1ccccc1 the AUC(0-t) was 193 ± 126 ng·h/mL (healthy male humans, fasted; oral, 60 mg of dapoxetine).
The AUC(0-t) of Cn1c(=O)oc2ccc(-c3ccc(CC(C#N)NC(=O)C4CNCCCO4)c(F)c3)cc21 (stereo not drawn) is reported as 1450 ng·h/mL (human; 10 mg once daily, day 28, geometric mean).
C=CC(=O)Nc1cc(Nc2nccc(-c3cn(C4CC4)c4ccccc34)n2)c(OC)cc1N(C)CCNC gave an AUC(0-t) of 1030 ± 121 ng·h/mL (healthy Chinese male human; oral, 110 mg almonertinib, metabolite, [14C] single dose).
For CN1CCC[C@]1(C)/C=C/S(=O)(=O)NC(=O)Nc1c2c(cc3c1CCC3)CCC2, the AUC(0-t) was 28900 ng·h/mL (human; oral, 12.5 mg twice daily, day 14, multiple ascending dose).
For O=C(CCc1ccc(CNC(C(=O)O)C2CCCCC2)cn1)NO (stereo not drawn), the AUC(0-t) was 189 ng·h/mL (healthy male humans; oral, 40 mg, single dose, geometric mean).
The AUC(0-t) of CC(C)[C@H](NC(=O)CNC(=O)[C@H](CCC(N)=O)NC(=O)[C@H](C)N)C(=O)O is reported as 7340 ng·h/mL (human, both sexes; intravenous infusion, 90 mg/kg/h, 2 h infusion, geometric mean).
CCc1cc(Nc2nc(-c3ccc(-n4cnc(C)c4)c(F)c3)cs2)c(C)cc1C has an AUC(0-t) of 3880 ng·h/mL (human; oral, 200 mg once daily, day 14, geometric mean).

Some of these lines once more:
For CN1CCC[C@]1(C)/C=C/S(=O)(=O)NC(=O)Nc1c2c(cc3c1CCC3)CCC2, the AUC(0-t) was 28900 ng·h/mL (human; oral, 12.5 mg twice daily, day 14, multiple ascending dose).
For O=C(CCc1ccc(CNC(C(=O)O)C2CCCCC2)cn1)NO (stereo not drawn), the AUC(0-t) was 189 ng·h/mL (healthy male humans; oral, 40 mg, single dose, geometric mean).
